Results from different studies.
Parts stem from different laboratories: compare values within a part only. Substitutions count along the parent as printed.

Set 1
Target: RING finger protein unkempt homolog, zinc fingers 1-6, GST-SBP tag (UNK, Homo sapiens, UniProt Q9C0B0, residues 30-357)
Chain of UniProt Q9C0B0 (30-357, looked up): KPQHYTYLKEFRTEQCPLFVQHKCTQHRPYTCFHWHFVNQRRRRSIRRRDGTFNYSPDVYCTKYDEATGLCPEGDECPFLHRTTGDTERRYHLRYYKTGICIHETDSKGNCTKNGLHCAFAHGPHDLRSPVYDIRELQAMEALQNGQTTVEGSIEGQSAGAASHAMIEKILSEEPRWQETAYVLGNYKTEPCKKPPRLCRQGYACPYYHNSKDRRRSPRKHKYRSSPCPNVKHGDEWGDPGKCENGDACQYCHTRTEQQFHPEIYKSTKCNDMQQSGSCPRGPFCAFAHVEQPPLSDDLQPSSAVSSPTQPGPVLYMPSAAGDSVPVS
Method: RNA Bind-n-Seq
Form: RNA
Matrix: in vitro
Tested at: not given
Setting: RNA with constant flanks, human and mouse sites, ends assumed
Reference: input RNA pool
Direction: higher = stronger binding
Constant ends, left off below: GGGAGUUCUACAGUCCGACGAUC … CAACAGAGGAUUGAGCAUCA
Sequence	bound/input enrichment
AACUCUCUCUGUAAAAGCAUAAUGAUGUAUGCCUGUACCAAGAAUGUUGACUUGGCUAUUCAGCAGGGGAAACAAAAACCUUCUGGCCUCACCCGUUCCACAUCAAUGCUUAUUUCUUCU	0.108 ratio
GAAAAGAAUGUGCUGUUUUCACAUCUUGAUGAUAAUGAGAGAAGUGAUAUUUUUGAUGCCAUGUUUUCGGUCUCCUUUAUCGCAGGAGAGACUGUGAUUCAGCAAGGUGAUGAAGGGGAU	0.219 ratio
UAGUGGAUAAGUGGAAACUGAGAUGUGUCCGUUCCUCCCGAGGCACUAGGAUGAUGGCGGGCUGUCAUAAUCAGGAAGCCUUCUGGUUACGGAAUUGCUUUUGCACCUAAUUUUAAGGAC	0.165 ratio
AACAUGACUAUUACUAAUGACUACCAGCACCUGCUUGUCAAUUCCAUUGCAAACUUUUUCCGUUUGCUAUCUCAGGGAGGUGGAAAAAUCAAGGUUGAGAUUUUGAAAAUCCUUUCGAAU	0.133 ratio
GACAAGUAUUUUGGCAGUGUAUGUGAACUUGAUAUCAUCUUUAAUUUUGAGAAGGCCUAUUUUAUUUUGGAUGAAUUUCUCUUGGGAGGAGAAGUUCAGGAAACAUCCAAGAAAAAUGUC	0.256 ratio
CCUCAGGCUGUGCAAAGGACACUGAGAGCCUCUUCCACAUAGAAAUACUCUGCUCUCGUAGCCUCUGGAAAGGCCCUGCAGCCCGACAUUGCUGUAGAGCUGGAGGAUCCGUGAGAUGAG	0.301 ratio
CAAAUUUUGAUUUUAUUUUGUAUCUUAAUUGCCAUGUCUCUUGUCUGUUCUGUGGGCUCAGCCAUUUGGAAUCGAAGGCAUUCUGGAAAAGACUGGUAUCUCAAUCUAAACUAUGGUGGC	0.64 ratio

Set 2
Target: Sal-like protein 4, full length isoform B (SALL4, Homo sapiens, UniProt Q9UJQ4-2, residues 1-616)
Method: universal PBM
Form: double-stranded DNA, one strand shown
Matrix: in vitro
Tested at: not given
Setting: 8-mer, flanks averaged, mean of replicates
Direction: higher = stronger binding
Target sequence (chain): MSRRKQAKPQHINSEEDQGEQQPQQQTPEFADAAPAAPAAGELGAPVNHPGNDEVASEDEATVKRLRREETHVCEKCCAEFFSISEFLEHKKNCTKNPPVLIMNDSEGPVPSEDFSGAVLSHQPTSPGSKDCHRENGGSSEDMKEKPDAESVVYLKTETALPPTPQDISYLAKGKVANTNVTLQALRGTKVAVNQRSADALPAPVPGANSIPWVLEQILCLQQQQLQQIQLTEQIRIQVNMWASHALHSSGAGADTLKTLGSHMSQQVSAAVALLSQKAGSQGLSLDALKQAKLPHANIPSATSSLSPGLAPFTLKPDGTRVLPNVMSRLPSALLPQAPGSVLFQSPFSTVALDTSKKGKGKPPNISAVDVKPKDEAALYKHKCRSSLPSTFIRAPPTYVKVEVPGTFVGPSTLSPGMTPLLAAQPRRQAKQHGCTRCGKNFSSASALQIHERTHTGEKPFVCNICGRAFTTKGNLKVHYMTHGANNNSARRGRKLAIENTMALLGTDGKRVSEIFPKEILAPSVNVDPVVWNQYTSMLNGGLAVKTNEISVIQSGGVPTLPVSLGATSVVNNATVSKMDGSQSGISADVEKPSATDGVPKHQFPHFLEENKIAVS
Sequence	E-score
GAGGTATC	-0.145
CATCGCGC	-0.231
CACTTGCA	0.0192
GCGAGAAC	-0.173
GCCCCGCC	-0.252
GAACATAA	0.243
ACGCTAGG	-0.0737
GATTGCCA	-0.124

Set 3
Target: ABI1, truncated, D143A, DHFR fusion (Arabidopsis thaliana)
Method: DHFR PCA, deep sequencing
Matrix: yeast
Setting: methotrexate growth selection, single substitutions
Together with: (+)-ABA 17 µM
Reference: wild-type fitted maximum
Direction: higher = stronger binding
Starting sequence: PYL1, truncated, DHFR fusion (Arabidopsis thaliana); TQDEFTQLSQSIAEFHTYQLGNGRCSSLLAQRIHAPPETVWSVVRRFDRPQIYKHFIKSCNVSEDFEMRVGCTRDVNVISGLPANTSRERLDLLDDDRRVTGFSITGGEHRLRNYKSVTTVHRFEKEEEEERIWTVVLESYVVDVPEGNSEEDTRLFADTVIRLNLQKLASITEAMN; partner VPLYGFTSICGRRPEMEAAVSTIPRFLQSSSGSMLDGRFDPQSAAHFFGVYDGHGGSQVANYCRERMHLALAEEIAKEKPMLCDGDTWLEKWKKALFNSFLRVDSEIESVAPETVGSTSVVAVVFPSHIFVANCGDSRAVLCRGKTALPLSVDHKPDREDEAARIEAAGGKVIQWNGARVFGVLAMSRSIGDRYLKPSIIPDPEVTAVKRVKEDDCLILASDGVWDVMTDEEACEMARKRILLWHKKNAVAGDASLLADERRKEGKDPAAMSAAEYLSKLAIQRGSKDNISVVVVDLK
Change	relative binding score
Q10R	78.2%
P50L	-4.91%
D3P	80.2%
E109H	64.7%
H55N	84.8%
T119K	9.58%
L91E	11.6%
A170T	49.7%
D48K	-2.87%
S27T	28.4%
R113W	47.4%

Single results of other studies
Substance	target	assay	test system	setting	how to read	measurement	result
PhoQ, residues 284 288 289 292 302 303 NSMLDC	PhoP, residues 12 14 15 18 19 QYCSL (Escherichia coli, UniProt P23836)	Sort-seq, item: YFP reporter	E. coli	PhoQ-PhoP variant library, together with: 10 µM Mg2+	reference: high Mg2+ state, higher = stronger signaling	fold induction	8.56
